Measured values pooled from the literature.
Lines come from different studies, so protocols differ. Values joined by “and” are separate records of one study, mostly repeats; a detail may differ. Numbers after ± are the reported error.

Molecule | target or system | assay | system | conditions | scale | endpoint | value
COc1nc(NC(C)C)nc(NC(C)C)n1 | – | agonist, qPCR in vivo, measured: Shp and Bsep mRNA | Oryzias latipes | dose not given | – | activity call | active
Cn1cnc(Cn2c(=O)[nH]/c(=N\c3cc4cn(C)nc4cc3Cl)n(Cc3cc(F)c(F)cc3F)c2=O)n1 | – | – | human, normal renal function | oral, 375 mg, treatment-related decreased GFR, Moderate severity | – | patients with adverse event | 0%
insulin human | – | measured: CNR1 mRNA | EcoHIV-infected mouse, brain | i.p., dose not given | reference: PBS | fold change | 0.892
WTFGAGAAL | – | AIM | peptide, CD8+ T cells from PBMC, human donors | dose not given | – | response magnitude per positive donor | 111
LPYAK | – | DSC | peptide, 7/3 SOPC/cholesterol bilayers | 10 mol%, pH 7.40, SOPC chain melting transition | – | transition enthalpy | 1.4 kcal/mol
CCCCN(C)CCNC(=O)c1cc(-c2ccc(Cl)s2)nc2ccccc12 | SARS-CoV-2 | cytopathic effect | USA_WA1/2020 | round 1, 5-point | – | efficacy | 76.5%
FVNEFYAYLR | – | AIM | peptide, CD8+ T cells from PBMC, human donors | dose not given | – | response magnitude per positive donor | 108
CS/C(S)=N/CCCC[S+](C)[O-] (racemic) | – | RT-PCR, measured: Pon1 | rat, colon | oral gavage, 200 mg/kg, 96 h, dosed for four days | reference: vehicle | mRNA fold change | 0.313
COc1ccc(C2=N[C@@](C)(C(=O)O)CS2)c(O)c1 | – | – | bile duct-cannulated rats, bile and urine | subcutaneous, 150 µmol/kg, 24 h, together with: uranium 1 mg/kg s.c. | – | uranium excretion | 248 ± 43 µg/kg
KPNELSRVL | – | AIM | peptide, CD8+ T cells from PBMC, human donors | HLA-B*07:02 restricted, unit not given | reference: positive over tested donors | frequency of responding donors | 33
Cc1ccc(Nc2ccnc(N3CCC(C(=O)NCCCc4ccccc4)CC3)n2)cc1 | SARS-CoV-2 | cytopathic effect, cell-based CPE | USA_WA1/2020 | round 2, 5-point dilution | – | AC50 | 7.08 µM
COc1ccc(C2=N[C@@H](C(=O)O)CS2)c(O)c1 | – | – | rat, bile duct-cannulated, bile and urine | subcutaneous, 150 µmol/kg single dose, 24 h, together with: uranium 1 mg/kg s.c. | – | uranium excretion | 238 ± 40 µg/kg
CC[C@H](C)[C@H](NC(=O)[C@H](CC(C)C)NC(=O)[C@H](Cc1c[nH]c2ccccc12)NC(=O)[C@H](CCC(N)=O)NC(=O)[C@@H](NC(=O)[C@H](Cc1ccccc1)NC(=O)[C@H](C)NC(=O)[C@H](CCCCNC(=O)COCCOCCNC(=O)COCCOCCNC(=O)CC[C@H](NC(=O)CCCCCCCCCCCCCCCCCCC(=O)O)C(=O)O)NC(=O)[C@H](CCC(N)=O)NC(=O)[C@H](C)NC(=O)[C@@H](NC(=O)[C@H](CCCCN)NC(=O)[C@H](CC(=O)O)NC(=O)[C@H](CC(C)C)NC(=O)C(C)(C)NC(=O)[C@@H](NC(=O)[C@H](CO)NC(=O)[C@H](Cc1ccc(O)cc1)NC(=O)[C@H](CC(=O)O)NC(=O)[C@H](CO)NC(=O)[C@@H](NC(=O)[C@H](Cc1ccccc1)NC(=O)[C@@H](NC(=O)CNC(=O)[C@H](CCC(=O)O)NC(=O)C(C)(C)NC(=O)[C@@H](N)Cc1ccc(O)cc1)[C@@H](C)O)[C@@H](C)O)[C@@H](C)CC)[C@@H](C)CC)C(C)C)C(=O)N[C@@H](C)C(=O)NCC(=O)NCC(=O)N1CCC[C@H]1C(=O)N[C@@H](CO)C(=O)N[C@@H](CO)C(=O)NCC(=O)N[C@@H](C)C(=O)N1CCC[C@H]1C(=O)N1CCC[C@H]1C(=O)N1CCC[C@H]1C(=O)N[C@@H](CO)C(N)=O | – | measured: anti-drug antibodies | patients with type 2 diabetes | 5/5/10/15 mg escalating, post-baseline | – | subjects with treatment-emergent ADA | 0%
LEAPFLYLY | – | AIM | peptide, CD8+ T cells from PBMC, human donors | – | reference: positive over tested donors | frequency of responding donors | 50%
Cc1c(COC(=O)[C@@H]2[C@H](/C=C(\Cl)C(F)(F)F)C2(C)C)cccc1-c1ccccc1 (racemic) | – | antagonist, qPCR in vivo, measured: Shp and Bsep mRNA | Oryzias latipes | dose not given | – | activity call | toxic
Nc1ncnc2c([C@@H]3N[C@H](CO)[C@@H](O)[C@H]3O)c[nH]c12 | Venezuelan equine encephalitis virus | viral replication | HeLa, SH3 | 0.8 µM | – | inhibition | 0.5%
COCCOCCOCCOc1ccc(C2=N[C@@](C)(C(=O)O)CS2)c(O)c1 | – | – | rat, bile duct-cannulated, bile and urine | subcutaneous, 150 µmol/kg single dose, 24 h, together with: uranium 1 mg/kg s.c. | – | uranium excretion | 482 ± 205 µg/kg
C/C=C1\NC(=O)C(C(C)O)NC(=O)C(CCCN)NC(=O)C(CCO)NC(=O)CNC(=O)C(CCN)NC(=O)C(NC(=O)CC(O)CCCCCCCCCCC)COC(=O)C(C(O)CCl)NC(=O)C(C(O)C(=O)O)NC1=O (stereo not shown) | – | calcein leakage | DOPC/DOPG/CHOL liposomes | concentration not given, together with: 40 mM CaCl2 | – | maximum fusion | 30 ± 6%
LPYGK | – | DSC | peptide, 6/4 SOPC/cholesterol bilayers | 15 mol%, pH 7.40, SOPC chain melting transition | – | transition enthalpy | 0.4 kcal/mol
O=C(O)CN(CCN(CC(=O)O)CC(=O)O)CCN(CC(=O)O)CC(=O)O | – | – | bile duct-cannulated rats, bile and urine | subcutaneous, 150 µmol/kg, 24 h, together with: uranium 1 mg/kg s.c. | – | uranium excretion | 276 ± 88 µg/kg
RIAGHHLGR | – | AIM | peptide, CD8+ T cells from PBMC, human donors | – | reference: positive over tested donors | frequency of responding donors | 50%
CNC(=O)[C@@H](NC(=O)[C@H](CC(C)C)[C@H](O)C(=O)NO)C(C)(C)C | Daboia russelii venom proteases (SVMP) | protease activity, inhibitor | MP population | 1 µM, together with: azocasein substrate | reference: venom alone | remaining activity | 65.4% and 67.7% and 64.7%
CC[C@H](C)[C@H](NC(=O)[C@H](Cc1ccc(O)cc1)NC(=O)[C@H](Cc1c[nH]c2ccccc12)NC(=O)[C@H](CC(C)C)NC(C)=O)C(=O)N[C@@H](CCCCN)C(N)=O | – | DSC | SOPC/cholesterol 6/4 bilayers | 15 mol%, pH 7.40 | – | transition enthalpy | 0.5 kcal/mol
RTRSMWSF | – | AIM | peptide, CD8+ T cells from PBMC, human donors | dose not given | – | response magnitude per positive donor | 109
COCCOCCOCCOc1cccc(C2=N[C@@](C)(C(=O)O)CS2)c1O | – | – | bile duct-cannulated rats, bile and urine | oral, 300 µmol/kg, 24 h, together with: uranium 1 mg/kg s.c. | – | uranium excretion | 257 ± 111 µg/kg
